Measurements collected from several papers.
Numbered parts are unrelated; each lists some results of a single study. Substitutions count along the parent as printed.

Study 1 — technique: DHFR PCA, deep sequencing; matrix: yeast; with: (+)-ABA 58 µM; baseline: wild-type fitted maximum; direction: higher = stronger binding
Target: ABI1, truncated, D143A, DHFR fusion (Arabidopsis thaliana)
Notes: methotrexate growth selection, single substitutions
Starting sequence: PYL1, truncated, DHFR fusion (Arabidopsis thaliana); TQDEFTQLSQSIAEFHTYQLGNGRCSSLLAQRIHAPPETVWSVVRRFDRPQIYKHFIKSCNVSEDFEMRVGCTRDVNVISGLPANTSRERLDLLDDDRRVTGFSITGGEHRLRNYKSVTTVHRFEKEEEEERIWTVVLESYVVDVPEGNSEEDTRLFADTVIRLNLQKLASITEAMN
Variant | relative binding score
I105S | 66.5%
I162Q | 7.7%
T73L | 83.1%
L28N | 14.6%
G23K | 86.1%
T101P | -10.8%
G148A | 60.2%
R69L | 77%
E152S | 81.7%
E130K | 106%
G21S | 88.8%
A170C | 82.3%
T160K | 72.7%
N177T | 82.6%
E128P | 93.4%
R32A | 81.6%
E38C | 57.1%

Study 2 — technique: RNA Bind-n-Seq; molecule type: RNA; matrix: in vitro; concentration: 200 nM; notes: whole 134-nt RNA, ends assumed; with: 150 mM KCl; baseline: input library; direction: higher = stronger binding
Target: Ras GTPase-activating protein-binding protein 1, full length (G3BP1, Homo sapiens, UniProt Q13283)
UniProt Q13283, sequence (whole entry, looked up): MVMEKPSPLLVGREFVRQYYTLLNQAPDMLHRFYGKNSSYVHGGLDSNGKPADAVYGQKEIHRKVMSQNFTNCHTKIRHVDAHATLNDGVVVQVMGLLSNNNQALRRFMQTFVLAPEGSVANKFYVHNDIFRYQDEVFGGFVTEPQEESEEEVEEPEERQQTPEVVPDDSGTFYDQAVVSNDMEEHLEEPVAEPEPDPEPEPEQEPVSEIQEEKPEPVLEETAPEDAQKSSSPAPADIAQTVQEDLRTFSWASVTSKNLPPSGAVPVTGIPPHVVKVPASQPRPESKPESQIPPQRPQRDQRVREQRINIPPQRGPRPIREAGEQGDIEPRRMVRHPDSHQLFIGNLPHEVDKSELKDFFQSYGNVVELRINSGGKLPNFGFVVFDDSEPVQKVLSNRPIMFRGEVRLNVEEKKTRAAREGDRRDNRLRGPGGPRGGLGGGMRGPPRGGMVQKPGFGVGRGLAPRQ
Oligonucleotide | log2 enrichment
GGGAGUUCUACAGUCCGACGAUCUGGGAGGUGGAUUUUGUUUAUUUUUUUAGCUCAUUUCCAGGGGUGGGAAUUUUUUUUUAAUAUGUGUCAUGAAUAAAGUUGAUUUUGAAAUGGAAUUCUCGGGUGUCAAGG | 0.413
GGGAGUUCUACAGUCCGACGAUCCUCAAGUCCUGUGCUACACAUCGUAUGUACCGAAUCGGGAAGGAAGGGGAAGGAAAGUAUUAUGUUACGCCGUUCGGAUCUGCACUUCCAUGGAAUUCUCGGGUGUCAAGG | -0.192
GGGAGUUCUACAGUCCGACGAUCUGGCCCUGGUGGCAUGCGGGGAGGAAGAGGUGGCCUCAUGGAUCGUGGUGGUCCCGGUGGAAUCUUCAGAGGUGGCCGUGGUGGAGACAGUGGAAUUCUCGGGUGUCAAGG | 0.00878
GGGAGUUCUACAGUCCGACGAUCUAACUUUAGAGGAGUAUCUGAUGGAUAUGGCAGUGGACGUGGAUUUGGGGAUGGCUAUAAUGGGUAUGGAGGAGGACCUGGAGGUGGCAAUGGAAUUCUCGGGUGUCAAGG | 0.49
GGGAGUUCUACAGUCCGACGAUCUCCUGUGCUACACAUCGUAUGUACCGAAUCGGGUUUUUUUGGGUUUUUGGGUUUUUGGGAAAGUAUUAUGUUACGCCGUUCGGAUCUGCAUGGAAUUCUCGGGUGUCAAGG | -0.351
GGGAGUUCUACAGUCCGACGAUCGUCCUGUGCUACACAUCGUAUGUACCGAAUCGGGUUUUUUUGGGUUUUUGGGAAAGGGAAAGUAUUAUGUUACGCCGUUCGGAUCUGCACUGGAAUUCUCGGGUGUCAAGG | -0.447
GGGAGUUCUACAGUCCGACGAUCUGGACCUGGUGGCAUGCGGGGAGGAAGAGGUGGCCUCAUGGAUCGUGGUGGUCCCGGUGGAAUGUUCAGAGGUGGCCGUGGUGGAGACAGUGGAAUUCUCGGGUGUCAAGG | 0.633
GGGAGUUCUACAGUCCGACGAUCAAGUCCUGUGCUACACAUCGUAUGUACCGAAUCGGGGUUUGGGGAGGGGAAAGGGGAAAGUAUUAUGUUACGCCGUUCGGAUCUGCACUUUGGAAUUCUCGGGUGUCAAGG | 0.607
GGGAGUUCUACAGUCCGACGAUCGUCCUGUGCUACACAUCGUAUGUACCGAAUCGGGGCCCCCGGGGCCCCCGGCCCCCGGAAAGUAUUAUGUUACGCCGUUCGGAUCUGCACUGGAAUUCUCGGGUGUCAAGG | 0.347
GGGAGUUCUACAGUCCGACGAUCCUCAAGUCCUGUGCUACACAUCGUAUGUACCGAAUCGGUUUGGAGGUUUUUGGAAAGUAUUAUGUUACGCCGUUCGGAUCUGCACUUCCAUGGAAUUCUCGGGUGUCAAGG | -0.249
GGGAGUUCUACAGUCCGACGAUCUAAGUUUAGAGGAGGAUCUGAUGGAUAUGGCAGUGGACGUGGAUUUGGGGAUGGCUAUAAUGGGUAUGGAGGAGGACCUGGAGGUGGCAAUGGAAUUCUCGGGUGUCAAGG | 0.278
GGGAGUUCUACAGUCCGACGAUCAAGUCCUGUGCUACACAUCGUAUGUACCGAAUCGGGAAAAAGGGUUUGGGUUUGGGAAAGUAUUAUGUUACGCCGUUCGGAUCUGCACUUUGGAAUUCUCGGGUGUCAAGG | 0.218
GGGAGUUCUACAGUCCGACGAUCUGGCCCUGUUGGCAUGCGGGGAGGAAGAGGUGGCCUCAUGGAUCGUGGUGGUCCCGGUGGAAUGUUCAGAGGUGGCCGUGGUGGAGACAGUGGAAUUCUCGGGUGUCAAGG | 0.144
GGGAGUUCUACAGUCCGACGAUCUCCUGUGCUACACAUCGUAUGUACCGAAUCGGGGUUUUUUUGGGGAAAAAGGGGUGGGGAAAGUAUUAUGUUACGCCGUUCGGAUCUGCAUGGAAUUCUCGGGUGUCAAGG | 0.616

Study 3 — technique: RNA Bind-n-Seq; molecule type: RNA; matrix: in vitro; concentration: 365 nM; baseline: no-protein control; direction: higher = stronger binding
Target: RNA binding protein fox-1 homolog 2, RRM domain, GST-SBP tag (RBFOX2, Homo sapiens, UniProt O43251-10, residues 100-194)
Notes: natural RNA segment, single round, ends assumed
Oligonucleotide | RBNS enrichment (R)
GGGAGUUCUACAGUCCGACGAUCAUAAUUAUACUUGCACAUGAAAAUAAAAUAUAAAGUCAAUAAUAGUCCUUGUAGCCCAAUGGGAAUUGAUUCUGUUUAUUGUCUGUACCAUUUUGCUACCAGUUACAUUGUGGAAUUCUCGGGUGCCAA | 0.73
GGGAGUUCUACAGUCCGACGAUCCAAUUUGUUAUAAGUUGGUUUUCAACAAAGAAAUUUAGCAGCCAAGUAAGGUUUCAAGGGAAUAUUAACUUGGUAUCAGGGCUACUUUUUUUUUUUUUUUUUUACUUGCAUGGAAUUCUCGGGUGCCAA | 1.61
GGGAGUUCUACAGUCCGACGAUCGACUAGCCAGAGGCCUGAUGGUCCCAGGUGGCUCUGGAUAUACUUUGGAUAUGGAUUUAAAUGGUCUCUAAGAGCCGGGGGUAGGGGGCAGGAAAAGUGGGUUGUCUUUGUGGAAUUCUCGGGUGCCAA | 0.444
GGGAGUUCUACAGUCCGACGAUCCAUAUACAUAUAUAUAUGGCCUUGUAAAACAGAUUUGAGACCUUGUGAAGAAAUGGAUAUGUUAUAUAUUUCUGCUACCUGGAUUUUCCUGGGUAAUUUGAUGGAAUAUUUGGAAUUCUCGGGUGCCAA | 0.534
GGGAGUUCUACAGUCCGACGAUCGAAUAAUAUCAAGAAAUUUUUCUUGUGAGGAAAUUCAUUUGGGGUGUGUACACUAAUGCUGUACUAGAUUCCCACAGAACAUCUAGCAAACAAAACUGAUACAAUCUGCUUGGAAUUCUCGGGUGCCAA | 0.516
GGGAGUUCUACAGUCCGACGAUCGGUAAAUAAGGUUUUAAUUCAGAUCUAGAAGAAAGUAUUGUACGUUUGAAUGCAGAUUUUUAUCCACAGAUAGUUGUAGUGUUUAGACAUGACAGGACCUAUCGUUGAGGUGGAAUUCUCGGGUGCCAA | 0.546
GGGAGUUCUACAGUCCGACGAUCUGCACCUAACCAACACCUCCAGGGGCUCGCUAAGGAGCCCCCCUCCACCCCCUGAAUGGGUGUGGCUUGUGGCCAUAUUGACAGACCAAUCUAUGGGACUAGGGGGAUUGUGGAAUUCUCGGGUGCCAA | 0.62
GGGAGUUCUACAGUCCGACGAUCCAACUGAAAUAAAAUAACCUAAAGUUUGCUACUAUGCUCUGAAGAUAAAGUGUGUUUUCAGGCUCAAUUAUUUCACCUUAAUGUAAUGUACUGUAAGAUUUUGUACUGAAUGGAAUUCUCGGGUGCCAA | 0.886
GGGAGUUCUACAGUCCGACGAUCUUACUGGGAAGUGGACACUAGGAAUUGCAGCCACUGGGCAGUUGGGGUGGCUUCCUGGGAGAUGAGCCGCGACCAGGUCCUGGGAAGGACUAUGGACUCUUGUUGUGUGGUGGAAUUCUCGGGUGCCAA | 1.76
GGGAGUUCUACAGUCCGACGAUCGAACAGACAAGUGGAAGGGCUGUACCAGGGAUAAAGGAAAGAAGUGCCUGUCCAGCAGGGAGCUUGAAUUUAAGUUCCAUGUAUGAAGUCAUUGGCUCUAUCUGCAUUUUUGGAAUUCUCGGGUGCCAA | 0.45
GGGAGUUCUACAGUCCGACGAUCUUUCUUUGUUAAUUGUACACUGAAUAAUGCCUUUUAAAAAUCAAAAUAAAAUUAACAAAUAAUGGUGAAUGAAGUGAGAUGAAAACUUGCUUAAUUUUUGCCUUGAUGAGUGGAAUUCUCGGGUGCCAA | 0.381
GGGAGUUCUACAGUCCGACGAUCCCUUAUCCUAUAGAGGCAUUUGUAAUAUGGAGAAAAUAAUUUUUCAUUUUUGCUCAUUUAAUUCUAUAAAUUCUCUUUAUAAAUGAAUUUUGUGUUCUUUAGUUCUCCUUUGGAAUUCUCGGGUGCCAA | 0.729

Study 4 — target: UBE2G2 UBC core domain (UniProt P60604); technique: yeast two-hybrid; matrix: yeast; notes: mostly zero background; baseline: not given; direction: higher = stronger interaction
B1: PRKN RING domain (UniProt O60260); chain LIATNSRNITCITCTDVRSPVLVFQCNSRHVICLDCFHLYCVTRLNDRQFVHDPQLGYSLPCVAGCPNSLIKELHH
B2: TRIM22 RING domain (UniProt Q8IYM9); chain KEVKMSPQEGQKRDVCEHHGKKLQIFCKEDGKVICWVCELSQEHQGHQTFRINEVVKECQEK
B3: RNF181 RING domain (UniProt Q9P0P0); chain VIRGSQAELKCPVCLLEFEEEETAIEMPCHHLFHSSCILPWLSKTNSCPLCRYELPTDDDTY
B4: RNF24 RING domain (UniProt Q9Y225); chain KVKELNLHELCAVCLEDFKPRDELGICPCKHAFHRKCLIKWLEVRKVCPLCNMPVLQLAQLH
B5: DTX1 RING domain (UniProt Q86Y01); chain QKVKNPPDEDCTICMERLVTASGYEGVLRHKGVRPELVGRLGRCGHMYHLLCLVAMYSNGNKDGSLQCPTCKAIYGEKTGTQ
B6: Ltn1 RING domain (UniProt Q6A009); chain VDKRFEGVEDCMICFSVIHGFNYSLPKKACRTCKKKFHSACLYKWFTSSNKSTCPLCRETFF
B7: RNF135 RING domain (UniProt Q8IUD6); chain PVWLAEDDLGCIICQGLLDWPATLPCGHSFCRHCLEALWGARDARRWACPTCRQGAAQQPHLR
B8: ZNRF3 RING domain (UniProt Q9ULT6); chain DTLSSSSTSDCAICLEKYIDGEELRVIPCTHRFHRKCVDPWLLQHHTCPHCRHNIIEQKGNP
B9: TRIM48 RING domain (UniProt Q8IWZ4); chain ISQVFQRELTCPICMNYFIDPVTIDCGHSFCRPCFYLNWQDIPILTQCFECIKTIQQRNLKT
Construct (chain): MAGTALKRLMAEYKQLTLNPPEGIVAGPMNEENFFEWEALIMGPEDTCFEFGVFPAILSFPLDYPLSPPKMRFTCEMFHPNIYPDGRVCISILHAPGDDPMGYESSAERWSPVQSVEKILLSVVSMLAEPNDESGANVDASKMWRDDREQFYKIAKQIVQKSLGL
Molecule | lacZ reporter activity
B1 (PRKN RING domain) | 0
B2 (TRIM22 RING domain) | 0
B3 (RNF181 RING domain) | 9310
B4 (RNF24 RING domain) | 0
B5 (DTX1 RING domain) | 0
QLRRLQEERTCKVCLDRAVSIVFVPCGHLVCAECAPGLQLCPICRAPVRSRVRTF (BIRC7 RING domain (UniProt Q96CA5)) | 8250
B6 (Ltn1 RING domain) | 0
KEQLEKHNDICAICYQDMKSAVITPCSHFFHAGCLKKWLYVQETCPLCHCHLKNSSQLP (RNF145 RING domain (UniProt Q96MT1)) | 0
ALDRLEKLLRCSRCTNILREPVCLGGCEHIFCSNCVSDCIGTGCPVCYTPAWIQDLKI (BARD1 RING domain (UniProt Q99728)) | 0
KLWDINAHITCRLCSGYLIDATTVTECLHTFCRSCLVKYLEENNTCPTCRIVIHQSHPLQ (PCGF3 RING domain (UniProt Q3KNV8)) | 0
B7 (RNF135 RING domain) | 0
B8 (ZNRF3 RING domain) | 4450
KITELNPHLMCVLCGGYFIDATTIIECLHSFCKTCIVRYLETSKYCPICDVQVHKTRPLL (BMI1 RING domain (UniProt P35226)) | 0
MDDQGCPRCKTTKYRNPSLKLMVNVCGHTLCESCVDLLFVRGAGNCPECGTPLRKSNFRV (MNAT1 RING domain (UniProt P51948)) | 0
NTAPSLTVPECAICLQTCVHPVSLPCKHVFCYLCVKGASWLGKRCALCRQEIPEDFLDK (RNF146 RING domain (UniProt Q9NTX7)) | 2420
B9 (TRIM48 RING domain) | 0

For quick reference, copied from above (study 1):
Variant | relative binding score
N177T | 82.6%
I105S | 66.5%
I162Q | 7.7%
E38C | 57.1%
G21S | 88.8%
G148A | 60.2%
E128P | 93.4%
R32A | 81.6%
E130K | 106%
G23K | 86.1%
